Experimental data of several laboratories.
Lines come from different studies, so protocols differ. ± marks the error that the study gave.
APP: Amyloid-beta precursor protein (APP, Homo sapiens, UniProt P05067)
Disks large homolog 4 PDZ3 domain: Disks large homolog 4, PDZ3 domain (Homo sapiens, UniProt P78352)
B1: calmodulin N-terminal domain; chain AEQLTEEQIAEFKEAFALFDKDGDGTITTKELGTVMRSLGQNPTEAELQDMINEVDADGNGTIDFPEFLSLMARK

Substance	target	test	system	setting	how to read	measurement	value
CNc1cccc2cc(C(=O)Nc3cccc(C(=O)O)c3)c(=O)[nH]c12	DNA gyrase subunit B (gyrB, Escherichia coli, UniProt P0AES6)	DNA supercoiling, inhibitor	–	concentration not given	relative to: analogue without N-methylamino	fold increase in activity	> 470 fold
FEEPIYIEPIDFE	Tyrosine-protein kinase CSK (CSK, Homo sapiens, UniProt P41240)	substrate	peptide	concentration not given	relative to: Glu or Asp Y-1 parent peptide	kcat/Km fold change	2.6 fold
CCN(CC)c1ccc(C=O)cc1	ALDH9A1 (Homo sapiens, UniProt P49189)	enzyme activity, inhibitor, absorbance	–	–	–	KI (inactivation)	0.054 µM
CC[C@H](C)[C@H](NC(=O)[C@H](CC(C)C)NC(=O)[C@H](CC(C)C)NC(=O)CNC(=O)[C@H](Cc1ccc(O)cc1)NC(=O)[C@H](CCCNC(=N)N)NC(=O)[C@H](CO)NC(C)=O)C(=O)N[C@@H](CCCCN)C(=O)N[C@@H](C)C(=O)N[C@@H](Cc1ccccc1)C(=O)N[C@@H](CO)C(=O)N[C@@H](CCSC)C(=O)N[C@H](C(=O)N[C@@H](C)C(=O)N[C@@H](C)C(=O)N[C@@H](CCC(=O)O)C(=O)N[C@H](C(=O)N[C@@H](C)C(=O)N[C@@H](CCCNC(=N)N)C(=O)N[C@@H](CCCNC(=N)N)C(=O)N[C@H](C(=O)N[C@@H](CCCNC(=N)N)C(=O)N[C@@H](CCC(=O)O)C(=O)N[C@@H](Cc1ccccc1)C(=O)N[C@@H](CCCNC(=N)N)C(N)=O)[C@@H](C)O)[C@@H](C)O)[C@@H](C)O	calmodulin 1-148 sites I and II	calcium binding, Phe fluorescence titration	–	12 µM, pH 7.4, 22 °C, together with: 6 µM calmodulin	–	apparent ΔG2	-14.9 ± 0.28 kcal/mol
O=C(C=Cc1ccc(O)c(OC(F)(F)F)c1)C(CCOC1CCCCO1)C(=O)C=Cc1ccc(O)c(OC(F)(F)F)c1 (stereo not drawn)	APP	Aβ aggregation, SDS-PAGE western blot, item: Aβ1-42 75-200 kDa band	–	30 µM, 24 h, 37 °C, together with: Aβ1-42 10 µM	relative to: DMSO	band density	2610 ± 1040%
Cc1c(Nc2ncccc2C(=O)O)cccc1C(F)(F)F	Caspase-4 (CASP4, Homo sapiens, UniProt P49662)	–	–	33 µM, together with: LEHD substrate	relative to: solvent control	remaining activity	17.9%
CGLF	Protein farnesyltransferase (Rattus norvegicus, UniProt Q02293+Q04631)	substrate, stopped-flow fluorescence	peptide	pH 7.8, 25 °C, single turnover	–	farnesylation rate constant	0.051 ± 0.005 s⁻¹
COc1cc(C=O)cc(OC)c1O	UGT (rat)	4-MU glucuronidation, inhibitor	rat liver microsomes	–	–	lowest inhibitory concentration	≥ 0.1 µM
CC(C)C[C@H](NC(=O)[C@H](Cc1c[nH]c2ccccc12)NC(=O)[C@@H]1CCCN1C(=O)[C@@H]1CCCN1C(=O)[C@H](Cc1ccccc1)NC(=O)[C@H](CO)NC(=O)CNC(=O)[C@H](CCCNC(=N)N)NC(=O)[C@H](CCCNC(=N)N)NC(=O)[C@H](CCCNC(=N)N)NC(=O)[C@H](CCCNC(=N)N)NC(=O)[C@H](CCCNC(=N)N)NC(=O)[C@@H](N)CCCNC(=N)N)C(=O)N[C@@H](CCC(N)=O)C(=O)N[C@@H](CCC(N)=O)C(=O)N[C@H](C(=O)N[C@@H](CCCNC(=N)N)C(=O)N[C@H](C(=O)O)C(C)C)[C@@H](C)O	Disks large homolog 4 PDZ3 domain	binding, surface plasmon resonance	–	pH 7.5, 25 °C	–	kon	65000 M⁻¹ s⁻¹
Ac-ARPMA-NH2 (N-acetyl, C-amide)	Fibroblast growth factor 2, with pentraxin 3 (Homo sapiens, UniProt P09038)	binding to PTX3, competitor, surface plasmon resonance	peptide	together with: 150 nM free FGF2	–	ID50	> 3000 µM
CC[C@H](C)[C@H](NC(=O)[C@@H](NC(=O)[C@@H](N)C(C)C)C(C)C)C(=O)N[C@H](C)C(N)=O	APP	amyloid aggregation, inhibitor, fluorescence	–	4 µM, 24 h	–	inhibition	14.6%
O=c1ccn([C@@H]2O[C@H](COP(=O)(O)O)[C@@H](O)[C@H]2O)c(=O)[nH]1	Adenylate kinase isoenzyme 1 (AK1, Homo sapiens, UniProt P00568)	substrate	–	–	relative to: kcat of D-AMP with human AK1	relative Vmax	2.9%
COc1cc2ncnc(Nc3ccc(F)c(Cl)c3)c2cc1OCCCN1CCN(CCC(=O)NCCCCCCCCOc2cccc3c2C(=O)N(C2CCC(=O)N(C)C2=O)C3=O)CC1 (stereo not drawn)	Epidermal growth factor receptor (EGFR, Homo sapiens, UniProt P00533, L858R)	western blot	H3255	10 µM, 2 h pretreatment	–	degrader-induced degradation	inhibited
CC[C@H](C)[C@@H]1NC(=O)[C@H]([C@@H](C)O)NC(=O)[C@H](Cc2ccc(O)cc2)NC(=O)[C@H](CCCNC(=N)N)NC(=O)[C@@H]2CCCN2C(=O)[C@H]2CCCN2C(=O)[C@H]([C@@H](C)O)NC(=O)[C@H](C(C)C)NC(=O)[C@H](C(C)C)NC(=O)[C@H](CCCCN)NC(=O)[C@H](CO)NC(=O)[C@H](CCC(N)=O)NC(=O)[C@H](CO)NC(=O)[C@H](Cc2ccc(O)cc2)NC(=O)[C@H](CO)NC(=O)[C@H](Cc2ccc(O)cc2)NC(=O)[C@@H]2CCCN2C(=O)[C@H](CO)NC(=O)[C@H](CC(C)C)NC(=O)[C@H](CC(C)C)NC(=O)[C@H](C)NC(=O)[C@H](C)NC1=O	Amyloid-beta precursor protein, Aβ40 (APP, Homo sapiens, UniProt P05067)	proteolysis by proteinase K, item: amyloid beta	–	1.4 µM, 24 h preincubation, 37 °C, together with: 20 µM amyloid beta, proteinase K 0.5 µg/mL	–	half-time of degradation	18 min
CC(=O)N[C@H]1[C@@H](O[C@H](C)[C@H](NC(=O)CNC(=O)[C@H](C)NC(=O)CNC(=O)[C@H](C)NC(=O)CNC(=O)[C@H](C)NC(=O)CNC(=O)[C@@H](NC(=O)[C@H](C)NC(=O)CN)[C@@H](C)O[C@H]2O[C@H](CO)[C@H](O)[C@H](O)[C@H]2NC(C)=O)C(=O)N[C@H](C(=O)N2CCC[C@H]2C(=O)NCC(=O)N2CCC[C@H]2C(=O)NCC(N)=O)[C@@H](C)O)O[C@H](CO)[C@H](O)[C@@H]1O	Polypeptide N-acetylgalactosaminyltransferase 4 (GALNT4, Homo sapiens, UniProt Q8N4A0)	substrate, STD-NMR, item: GalNAc N-acetyl methyl	–	877 µM, pH 7.4, 298 K, together with: UDP and MnCl2	–	STD enhancement	> 75%
CC(C)[C@H](NC(=O)[C@H](CCCNC(=N)N)NC(=O)[C@@H](NC(=O)[C@H](CCC(N)=O)NC(=O)[C@H](CCC(N)=O)NC(=O)[C@H](NC(=O)[C@H](Cc1c[nH]c2ccccc12)NC(=O)[C@@H]1CCCN1C(=O)[C@@H]1CCCN1C(=O)[C@H](Cc1ccccc1)NC(=O)[C@H](CO)NC(=O)CNC(=O)[C@H](CCCNC(=N)N)NC(=O)[C@H](CCCNC(=N)N)NC(=O)[C@H](CCCNC(=N)N)NC(=O)[C@H](CCCNC(=N)N)NC(=O)[C@H](CCCNC(=N)N)NC(=O)[C@@H](N)CCCNC(=N)N)C(C)C)[C@@H](C)O)C(=O)O	Disks large homolog 4 PDZ3 domain	binding, surface plasmon resonance	–	pH 7.5, 25 °C	–	kon	2.19e+06 M⁻¹ s⁻¹
O=Cc1ccccc1	aldehyde oxidase F13 (Pseudomonas sp. MX-058)	substrate, peroxidase-coupled H2O2	–	pH 7.0, 30 °C, together with: O2 co-substrate	–	Km	8.71 mM
Ac-GPSLNPFDEED-NH2 (N-acetyl, C-amide)	EHD1 EH domain, mouse	ITC	peptide	pH 7.0, 20 °C, 0 mM KCl, second titration	–	ΔH	-11.3 kcal/mol
B1 (calmodulin N-terminal domain)	rat NaV1.2 IQ peptide	NMR HSQC	–	concentration not given, apo and calcium-saturated	–	binding	no binding
collagenase	CNGA3 (Homo sapiens, UniProt Q16281)	ion current, inside-out patch clamp	Xenopus oocytes	100 nM, protease-treated channels	–	Hill coefficient for cGMP	2.3
CCC(CC)CSc1nc2c([nH]1)c(=S)n(C)c(=O)n2C	Androgen receptor (AR, Homo sapiens, UniProt P10275)	reporter gene, antagonist, PSA-luciferase	HeLa-A6	10 µM, 24 h, together with: 5 nM dihydrotestosterone	relative to: maximal activity	remaining activity	96%
CCN(c1ccccc1Cl)S(=O)(=O)C1CC2OC1C(c1ccc(O)cc1)=C2c1ccc(O)cc1 (stereo not drawn)	Estrogen receptor (ESR1, Homo sapiens, UniProt P03372)	reporter gene, antagonist	HepG2	together with: estradiol 10 nM	relative to: E2 response, negative is inverse agonism	efficacy	20 ± 4%
COC1=C(OC)C(=O)C(C/C=C(\C)CC/C=C(\C)CC/C=C(\C)CC/C=C(\C)CC/C=C(\C)CC/C=C(\C)CC/C=C(\C)CCC=C(C)C)=C(C)C1=O	regB (Rhodobacter capsulatus, UniProt D5AKG6)	UV difference spectrum, NaBH4	–	pH 7.6, 22 °C, copurified, expressed in Escherichia coli	–	bound compound	0.6 to 0.8 mol/mol protein
CSCC[C@H](NC(=O)[C@H](CC(C)C)NC(=O)[C@H](CCCCN)NC(=O)[C@H](CCCCN)NC(=O)[C@H](Cc1c[nH]cn1)NC(=O)[C@H](CCCNC(=N)N)NC(=O)[C@H](CO)NC(=O)[C@@H](NC(=O)[C@H](CO)NC(=O)[C@H](CCC(N)=O)NC(=O)CNC(=O)[C@H](CCCCN)NC(=O)[C@H](CCCCN)NC(=O)[C@H](CO)NC(=O)[C@H](CCCCN)NC(=O)[C@H](CC(C)C)NC(=O)[C@H](Cc1c[nH]cn1)NC(=O)[C@H](CO)NC(=O)[C@H](Cc1ccc(O)cc1)NC(C)=O)[C@@H](C)O)C(=O)N[C@@H](Cc1ccccc1)C(=O)N[C@@H](CCCCN)C(=O)N[C@H](C(=O)N[C@@H](CCC(=O)O)C(N)=O)[C@@H](C)O	Protein S100-B (Homo sapiens, UniProt P04271)	binding, NMR line shape, NMR only	–	35 °C, low salt	–	koff	1000 ± 200 s⁻¹

Repeated from above:
Substance	target	test	system	setting	how to read	measurement	value
CCC(CC)CSc1nc2c([nH]1)c(=S)n(C)c(=O)n2C	Androgen receptor (AR, Homo sapiens, UniProt P10275)	reporter gene, antagonist, PSA-luciferase	HeLa-A6	10 µM, 24 h, together with: 5 nM dihydrotestosterone	relative to: maximal activity	remaining activity	96%
